Assay results collected from several papers.
A part holds a random share of what one study measured. Values joined by “and” are separate records of one study, mostly repeats; a detail may differ.

Sample 1
Target: Cyclin-dependent kinase 6, with cyclin D1 (CDK6, Homo sapiens, UniProt Q00534)
UniProt Q00534, sequence (whole entry, looked up): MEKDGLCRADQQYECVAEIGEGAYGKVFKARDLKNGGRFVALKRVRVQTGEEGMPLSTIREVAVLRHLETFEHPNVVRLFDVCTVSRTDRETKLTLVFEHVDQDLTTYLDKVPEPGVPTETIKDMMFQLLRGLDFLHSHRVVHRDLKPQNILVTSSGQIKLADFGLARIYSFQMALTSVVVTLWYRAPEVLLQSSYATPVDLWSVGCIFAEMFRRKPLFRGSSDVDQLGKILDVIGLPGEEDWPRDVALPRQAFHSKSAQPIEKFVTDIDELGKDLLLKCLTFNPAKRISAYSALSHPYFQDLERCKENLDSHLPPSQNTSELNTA
Read-out: enzyme activity
Mode: inhibitor
Tested at: 0.5 µM
Baseline: control
With `Clc1ccc(Nc2nnc(Cc3ccncc3)c3ccccc23)cc1` the remaining activity was 93%.
The remaining activity of `Nc1nc(Nc2ccc(S(N)(=O)=O)cc2)nn1C(=S)Nc1c(F)cccc1F` is reported as 2.89%.
For `N#CC(c1ccnc(NCCc2cccnc2)n1)c1nc2ccccc2s1` (stereo not drawn), the remaining activity was 89.7%.
For `COc1cc2c(Nc3ccc(Br)cc3F)ncnc2cc1OCC1CCN(C)CC1`, the remaining activity was 98.7%.
`O=C1c2ccccc2-c2nc3nnnn3nc21` gave a remaining activity of 59.6%.
`NC(=O)c1ccc(-c2nc(-c3ccc4c(c3)OCCO4)c(-c3ccccn3)[nH]2)cc1` gave a remaining activity of 106%.
`CNc1cc2c(Nc3cccc(Br)c3)ncnc2cn1` gave a remaining activity of 82.2%.
For `O=C1NC(=O)/C(=C/c2ccc3c(c2)OC(F)(F)O3)S1`, the remaining activity was 95.4%.
The remaining activity of `O=C(O)/C=C/c1cc(Br)c(Br)c(Br)c1Br` is reported as 102%.
`CC(C)N(CCC(=O)c1ccc2ccccc2c1)Cc1ccccc1` has a remaining activity of 96.8%.
The remaining activity of `NC(=O)c1cccc(-c2cc(Nc3ccc(OC(F)(F)F)cc3)ncn2)c1` is reported as 99.1%.
`CC(C)(C)c1nc2c3cc[nH]c(=O)c3c3cc(F)ccc3c2[nH]1` gave a remaining activity of 87.7%.
The remaining activity of `FC(F)(F)c1ccc(/C=C/c2nc(COc3ccc(CCCCn4ccnn4)cc3)co2)cc1` is reported as 95.4%.
For `O=c1c(-c2ccc(F)cc2)c(-c2ccncc2)[nH]n1-c1ccc(Cl)cc1`, the remaining activity was 92.3%.
`c1cc(-c2cnn3cc(-c4ccc(OCCN5CCCCC5)cc4)cnc23)ccn1` has a remaining activity of 21.2%.
`COc1cc2c(N3CCN(C(=O)Nc4ccc(OC(C)C)cc4)CC3)ncnc2cc1OCCCN1CCCCC1` has a remaining activity of 94.6%.
`CC(C)n1cnc2c(Nc3cccc(Cl)c3)nc(NCCO)nc21` has a remaining activity of 95.5%.
`CCCCc1c(-c2ccc(O)cc2)[nH]c2nccnc12` gave a remaining activity of 61.6%.
With `CCN(CC)CCCCN1c2ccccc2Oc2ccc(Cl)cc21` the remaining activity was 98%.
`O=Nc1c(-c2c(O)[nH]c3ccccc23)[nH]c2ccccc12` gave a remaining activity of 52.8%.
With `O=C(c1ccccc1)c1ccc(N2CCOCC2)cc1O` the remaining activity was 97.8%.
`N#C/C(=C(/N)SC1C=CC=CC1)c1cccc(C(O)c2ccncc2)c1` (stereo not drawn) gave a remaining activity of 95.9%.
`C[C@@H](N)[C@H]1CC[C@H](C(=O)Nc2ccncc2)CC1` has a remaining activity of 95.1%.

Sample 2
Cell line: mouse MPNST tumor cells
Method: high-content immunofluorescence imaging
Measured: nuclear SOX9
Tested at: 10 µM
Time: 12 h
Setting: mean of 2 replicates
Baseline: DMSO control
Reading: higher = more nuclear SOX9
`C[S+]([O-])c1ccc(-c2nc(-c3ccc(F)cc3)c(-c3ccncc3)[nH]2)cc1` (stereo not drawn): “nuclear SOX9 intensity” 120 % of DMSO.
`CC1(c2ccccc2)OC(C(=O)O)=CC1=O` (stereo not drawn): “nuclear SOX9 intensity” 94.8 % of DMSO.
`CCCCOC(=O)c1ccc(N)cc1` — result for “nuclear SOX9 intensity”: 95.8 % of DMSO.
`CCOC(=O)c1ncn2c1CN(C)C(=O)c1cc(F)ccc1-2` — result for “nuclear SOX9 intensity”: 107 % of DMSO and 98.4 % of DMSO.
`C=C1c2cccc(O)c2C(O)=C2C(=O)[C@]3(O)C(O)=C(C(N)=O)C(=O)[C@@H](N(C)C)[C@@H]3[C@@H](O)[C@H]12`: “nuclear SOX9 intensity” 99.9 % of DMSO.
Under “nuclear SOX9 intensity”, `Cc1cc(C)c(C)c(S(=O)(=O)Nc2ccc(N3CC[C@H](C(=O)O)C3)c3ccccc23)c1C` is recorded as 85.6 % of DMSO.
`N[C@@H]1CCCCN(c2c(F)cc3c(=O)c(C(=O)O)cn(C4CC4)c3c2Cl)C1`: “nuclear SOX9 intensity” 99.7 % of DMSO.
Under “nuclear SOX9 intensity”, `N#Cc1c(N)nc(SCc2ncc[nH]2)c(C#N)c1-c1ccc(O)cc1` is recorded as 104 % of DMSO.
`N=C(NC(=O)c1nc(Cl)c(N)nc1N)Nc1ccccc1` — result for “nuclear SOX9 intensity”: 118 % of DMSO.
`CC[N+](CC)(CC)CCC(O)(c1ccccc1)C1CCCCC1` (stereo not drawn) — result for “nuclear SOX9 intensity”: 87.7 % of DMSO.
Under “nuclear SOX9 intensity”, `O=C(O)c1ccc(-c2c[nH]c3ncc(-c4ccccc4)cc23)cc1C1CCCC1` is recorded as 99.1 % of DMSO.
Under “nuclear SOX9 intensity”, `O=C(c1cccc(Br)c1)N1CCC(N2CCCC2)CC1` is recorded as 84.6 % of DMSO.
`CC(=O)[C@@]1(O)CC[C@H]2[C@@H]3C[C@H](C)C4=CC(=O)C=C[C@]4(C)[C@@]3(F)[C@@H](O)C[C@@]21C` — result for “nuclear SOX9 intensity”: 67.3 % of DMSO.

Sample 3
Species: mouse
Matrix: microsomes or S9
Tested at: 2 µM
Time: 0.5 h
For `COc1cc(OC)c2c(c1)C(=O)NN1C(=O)OC(C)(C)C21C` (stereo not drawn), the remaining compound was 54.2%.
`Cc1csc(C2=C(O)CN(CCC(c3ccccc3)c3ccccc3)C2=N)n1` has a remaining compound of 0.349%.
The remaining compound of `CCOC(=O)CCS(=O)(=O)c1n[nH]c(NC(C)=O)n1` is reported as 50.7%.
For `Oc1cc2c(cc1C(c1ccc(Br)cc1)N1CCOCC1)OCO2` (stereo not drawn), the remaining compound was > 99.9%.
With `CCOc1cccc(CNCc2cccnc2)c1OCc1ccc(C)cc1` the remaining compound was 0.442%.
For `Cc1cc(C)cc(N(C)S(=O)(=O)c2ccsc2-c2nc(-c3cccnc3)no2)c1`, the remaining compound was 6.34%.
For `O=C(Nc1cc2ccc(O)cc2s1)Nc1ccc(Br)cc1F`, the remaining compound was 36.2%.
With `N#Cc1cnc(N[C@H]2CC[C@H](Nc3cnc(C#N)cn3)CC2)cn1` the remaining compound was > 99%.
The remaining compound of `COC(=O)CCC(=O)Nc1sc(C)c(C)c1C(N)=O` is reported as 55.5%.
The remaining compound of `O=C(Nc1cc(Oc2ncccn2)c(Cl)cc1F)Oc1ccccc1` is reported as 1.66%.
For `Cc1nn(CC(=O)N2c3c(c(C)nn3C)N(C(=O)OC(C)(C)C)CC2C)c(C)c1Cl` (stereo not drawn), the remaining compound was 3.35%.
For `Cc1cc(C)c(C(=O)Nc2ccc3c(c2)n(C)c(=O)n3C)c(=O)[nH]1`, the remaining compound was 76.3%.
For `CCN1CCN(CCNC(=O)c2ccc3c(c2)N(Cc2cccc(C)c2)C(=O)c2ccccc2S3(=O)=O)CC1`, the remaining compound was 2.23%.
`N=C(NS(=O)(=O)c1ccccc1)c1ccccc1` has a remaining compound of 77.2%.
For `Nc1c(C(=O)c2ccc[nH]2)cnn1-c1ccc(F)cc1`, the remaining compound was 47.8%.
`CC(=O)CCS(=O)(=O)c1ccc(-c2ccc(S(=O)(=O)CCC(C)=O)cc2)cc1` has a remaining compound of 8.67%.
For `Cc1cccc(C2=C(N)OC(c3ccc(Cl)cc3)C2=O)n1` (stereo not drawn), the remaining compound was 2.13%.

Single results of other studies
The viability of `CN(C)C(=O)/C(C#N)=C/c1ccc(-c2nc3cnc4c(ccn4C)c3n2C2CCCCC2)o1` is reported as 110% (colorectal tumour organoids; 0.1 µM; baseline: DMSO).

Excerpt of the above (sample 3):
The remaining compound of `COC(=O)CCC(=O)Nc1sc(C)c(C)c1C(N)=O` is reported as 55.5%.
The remaining compound of `O=C(Nc1cc(Oc2ncccn2)c(Cl)cc1F)Oc1ccccc1` is reported as 1.66%.
For `Cc1nn(CC(=O)N2c3c(c(C)nn3C)N(C(=O)OC(C)(C)C)CC2C)c(C)c1Cl` (stereo not drawn), the remaining compound was 3.35%.
